Experimental data of several laboratories.
± gives the spread as reported.
4'-phosphopantetheinyl transferase PptT: 4'-phosphopantetheinyl transferase PptT (Mycobacterium tuberculosis, UniProt O33336)
Sequence of UniProt O33336 (whole entry, looked up): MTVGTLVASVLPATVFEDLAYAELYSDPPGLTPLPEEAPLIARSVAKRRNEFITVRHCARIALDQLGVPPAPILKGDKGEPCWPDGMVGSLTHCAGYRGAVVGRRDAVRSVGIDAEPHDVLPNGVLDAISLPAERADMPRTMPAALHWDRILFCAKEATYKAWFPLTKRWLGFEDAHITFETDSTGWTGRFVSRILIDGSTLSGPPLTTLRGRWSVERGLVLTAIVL
CNR1 I267L: Cannabinoid receptor 1 (CNR1, Homo sapiens, UniProt P21554, I267L)
Sequence of UniProt P21554 (whole entry, unmodified, looked up): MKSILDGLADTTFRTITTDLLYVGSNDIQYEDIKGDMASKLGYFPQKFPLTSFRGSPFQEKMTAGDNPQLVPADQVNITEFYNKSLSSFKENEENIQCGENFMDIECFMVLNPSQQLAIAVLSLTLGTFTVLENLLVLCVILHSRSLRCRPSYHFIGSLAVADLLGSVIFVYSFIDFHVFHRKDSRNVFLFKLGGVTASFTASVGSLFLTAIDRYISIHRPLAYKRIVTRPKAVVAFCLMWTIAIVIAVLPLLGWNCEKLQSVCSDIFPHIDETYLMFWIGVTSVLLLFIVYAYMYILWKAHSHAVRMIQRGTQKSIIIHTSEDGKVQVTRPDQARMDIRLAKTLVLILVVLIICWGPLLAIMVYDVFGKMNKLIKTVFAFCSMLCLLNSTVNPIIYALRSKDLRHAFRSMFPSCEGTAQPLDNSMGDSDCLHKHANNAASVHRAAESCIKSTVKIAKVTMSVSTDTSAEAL
Matrix protein 2: Matrix protein 2 (Influenza A virus, UniProt P0DOF5)
Sequence of UniProt P0DOF5 (whole entry, looked up): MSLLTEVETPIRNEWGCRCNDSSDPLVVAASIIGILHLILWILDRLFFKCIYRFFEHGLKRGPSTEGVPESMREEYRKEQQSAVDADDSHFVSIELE
Sequence of UniProt P34972 (whole entry, unmodified, looked up): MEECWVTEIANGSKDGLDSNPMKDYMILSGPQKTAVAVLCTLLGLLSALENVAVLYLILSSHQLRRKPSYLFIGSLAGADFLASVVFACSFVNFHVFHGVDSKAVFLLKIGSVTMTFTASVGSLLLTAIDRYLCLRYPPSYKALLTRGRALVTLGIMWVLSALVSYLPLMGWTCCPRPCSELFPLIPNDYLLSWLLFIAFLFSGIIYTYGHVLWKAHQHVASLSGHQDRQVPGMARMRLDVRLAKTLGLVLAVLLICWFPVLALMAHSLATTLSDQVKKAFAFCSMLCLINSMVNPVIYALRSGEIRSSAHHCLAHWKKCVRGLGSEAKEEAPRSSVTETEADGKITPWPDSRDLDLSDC
Sequence of UniProt P9WPA5 (whole entry, looked up): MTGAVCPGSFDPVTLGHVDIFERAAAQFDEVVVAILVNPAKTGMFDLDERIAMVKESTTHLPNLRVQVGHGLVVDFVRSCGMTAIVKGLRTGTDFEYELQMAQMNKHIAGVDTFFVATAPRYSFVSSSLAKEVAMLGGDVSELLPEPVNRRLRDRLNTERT
Sequence of UniProt P09622 (whole entry, looked up): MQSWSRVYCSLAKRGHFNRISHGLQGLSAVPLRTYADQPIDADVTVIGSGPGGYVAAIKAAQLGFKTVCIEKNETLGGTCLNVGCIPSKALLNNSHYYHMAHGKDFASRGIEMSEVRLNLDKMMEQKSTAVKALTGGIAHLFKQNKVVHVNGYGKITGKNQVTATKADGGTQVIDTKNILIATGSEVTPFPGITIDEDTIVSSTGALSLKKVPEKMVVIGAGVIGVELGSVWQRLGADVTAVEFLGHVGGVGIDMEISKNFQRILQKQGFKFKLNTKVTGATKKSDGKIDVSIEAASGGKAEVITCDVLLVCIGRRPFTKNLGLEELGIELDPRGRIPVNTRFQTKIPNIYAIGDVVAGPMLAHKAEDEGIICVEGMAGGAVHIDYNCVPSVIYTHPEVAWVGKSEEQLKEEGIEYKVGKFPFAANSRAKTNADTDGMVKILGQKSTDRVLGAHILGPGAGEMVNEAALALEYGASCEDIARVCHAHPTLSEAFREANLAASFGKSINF
Sequence of UniProt P35503 (whole entry, looked up): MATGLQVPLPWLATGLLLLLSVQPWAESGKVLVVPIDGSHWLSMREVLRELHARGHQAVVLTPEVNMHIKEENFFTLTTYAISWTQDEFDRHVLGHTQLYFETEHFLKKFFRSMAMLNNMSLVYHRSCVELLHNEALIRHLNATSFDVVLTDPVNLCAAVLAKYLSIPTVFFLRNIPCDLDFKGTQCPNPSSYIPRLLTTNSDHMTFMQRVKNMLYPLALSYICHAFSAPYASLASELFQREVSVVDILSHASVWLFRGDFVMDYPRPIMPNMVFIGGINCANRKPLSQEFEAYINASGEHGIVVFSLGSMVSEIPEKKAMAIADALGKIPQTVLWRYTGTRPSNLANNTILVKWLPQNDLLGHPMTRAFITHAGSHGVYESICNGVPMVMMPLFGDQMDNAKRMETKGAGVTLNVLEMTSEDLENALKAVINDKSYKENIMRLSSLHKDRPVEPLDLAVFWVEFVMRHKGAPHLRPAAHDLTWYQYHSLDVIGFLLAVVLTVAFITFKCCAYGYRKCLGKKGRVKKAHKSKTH
Sequence of UniProt P32300 (whole entry, looked up): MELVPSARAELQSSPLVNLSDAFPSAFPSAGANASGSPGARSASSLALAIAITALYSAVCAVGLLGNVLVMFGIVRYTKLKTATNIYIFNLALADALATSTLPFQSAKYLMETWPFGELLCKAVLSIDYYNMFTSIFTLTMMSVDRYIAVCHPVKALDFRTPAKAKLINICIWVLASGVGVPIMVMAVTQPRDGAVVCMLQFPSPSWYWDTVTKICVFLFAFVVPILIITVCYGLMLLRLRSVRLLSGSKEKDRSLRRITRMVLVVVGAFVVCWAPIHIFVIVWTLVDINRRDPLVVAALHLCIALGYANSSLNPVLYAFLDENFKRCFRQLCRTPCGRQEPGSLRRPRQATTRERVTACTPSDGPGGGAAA
Sequence of UniProt P25084 (whole entry, looked up): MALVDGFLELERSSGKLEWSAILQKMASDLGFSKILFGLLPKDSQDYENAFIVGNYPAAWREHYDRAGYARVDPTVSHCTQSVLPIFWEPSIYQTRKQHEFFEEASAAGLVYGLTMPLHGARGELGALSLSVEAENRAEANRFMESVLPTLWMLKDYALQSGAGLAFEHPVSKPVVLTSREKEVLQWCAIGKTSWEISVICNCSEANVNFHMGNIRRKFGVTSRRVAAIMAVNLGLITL
Sequence of UniProt P9WIA1 (whole entry, looked up): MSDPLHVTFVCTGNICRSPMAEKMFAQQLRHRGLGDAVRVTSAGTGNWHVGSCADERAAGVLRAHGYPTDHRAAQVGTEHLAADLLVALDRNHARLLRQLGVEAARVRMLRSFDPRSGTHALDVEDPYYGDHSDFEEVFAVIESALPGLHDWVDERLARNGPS

`CCOC(=O)CC[C@@H](NC(=O)c1ccc(N(C)Cc2ccc3[nH]c(C)nc(=O)c3c2)s1)C(=O)OCC` gave a Hill slope of 0.8 (4'-phosphopantetheinyl transferase PptT; enzyme activity, inhibitor, fluorescence polarization).
For `CCCC/C=C/C(=O)N[C@@H](Cc1cc(F)cc(F)c1)C(=O)N[C@@H](COC(=O)[C@@H]1CCCN1C(C)=O)C(=O)OC`, the ATPase activity was roughly 45% (ClpX Mycobacterium tuberculosis; 200 µM, DMSO 20%, together with: 2 µM ClpP1P2).
`CCCCCn1cc(C(=O)c2cccc3c2CC(C)(C)C3)c2ccccc21` has an Emax of 66.8 ± 6.9% (CNR2 (Homo sapiens, UniProt P34972, I110L); Gαi1 engagement, agonist, BRET; relative to: reference agonist at wild-type CB2).
With `Cc1nc(=O)c2cc(CN(C)c3ccc(C(=O)NCc4cccc(C(=O)O)c4)s3)ccc2[nH]1` the Hill slope was 1.1 (4'-phosphopantetheinyl transferase PptT; enzyme activity, inhibitor, fluorescence polarization).
For `CCCCCc1cc(O)c2c(c1)OC(C)(C)C1CCC(C)=CC21` (single isomer, unassigned; (-)), inhibition read “no inhibition” (UGT1A3 (Homo sapiens, UniProt P35503); chenodeoxycholic acid glucuronidation; recombinant microsomes; 10 or 100 µM, together with: chenodeoxycholic acid).
The Emax of `N=C(N)NCCCCCCN1CCC23c4c5ccc(O)c4OC2c2nc4ccccc4cc2CC3(O)C1C5` (stereo not drawn) is reported as 70% (Delta-type opioid receptor, with Gi1 (Oprd1, Mus musculus, UniProt P32300); receptor activation, agonist; concentration not given).
`O=S(=O)(O)CCOCC1CSSCC(COCCS(=O)(=O)O)SS1` (stereo not drawn) has a kon of 5300 ± 510 M⁻¹ s⁻¹ (Response regulator PhoP (Mycobacterium tuberculosis, UniProt P71814); binding, LSPR).
`N[C@@H](CCC(=O)N[C@@H](CS[Se]Cc1ccc(C(=O)Nc2cc(C(F)(F)F)c(Br)c(C(F)(F)F)c2)cc1)C(=O)NCC(=O)O)C(=O)O` — result for “modified protein mass”: 18.7 kDa (Low molecular weight protein-tyrosine phosphatase A (Mycobacterium tuberculosis, UniProt P9WIA1)).
For `CCCCc1cn(-c2cccc(C(=O)N[C@H]3CCOC3=O)c2)nn1`, the activation was 0% (lasR (Pseudomonas aeruginosa, UniProt P25084); reporter gene, agonist; Escherichia coli, DH5α pJN105L/pSC11; 100 µM; relative to: OdDHL at same concentration).
With `CCCCCn1cc(C(=O)c2ccc3c(c2)CC(C)(C)C3)c2ccccc21` the Emax decrease was roughly 30% (CNR1 I267L; Gαi1 engagement, agonist, BRET; relative to: wild type).
`COc1ccc(CNC(C)(C)C23CC4CC(CC(C4)C2)C3)c(O)c1` gave a kon of 332.6 ± 1.7 M⁻¹ s⁻¹ (Matrix protein 2; binding).
`O=C(O)CCc1c[nH]c2ccccc12` has a ligand efficiency of 0.29 (Phosphopantetheine adenylyltransferase (coaD, Mycobacterium tuberculosis, UniProt P9WPA5); competition ITC).
For `Cc1nc(=O)c2cc(CN(C)c3ccc(C(=O)N[C@H](CCC(=O)O)c4nnn[nH]4)s3)ccc2[nH]1`, the Hill slope was 2.4 (4'-phosphopantetheinyl transferase PptT; enzyme activity, inhibitor, fluorescence polarization).
The inhibition of `c1csc(CNC23CC4CC(CC(C4)C2)C3)c1` is reported as 78% (Matrix protein 2; ion current, two-electrode voltage clamp; 100 µM).
With `Cc1nc(=O)c2cc(CN(C)c3ccc(C(=O)NCCN4C(=O)NC(=O)[C@H]4C)s3)ccc2[nH]1` the Hill slope was 0.7 (4'-phosphopantetheinyl transferase PptT; enzyme activity, inhibitor, fluorescence polarization).
The Emax of `CCCCCn1cc(C(=O)c2cccc3ccccc23)c2ccccc21` is reported as 75.4 ± 4.5% (CNR1 I267L; Gαi1 engagement, agonist, BRET; relative to: reference agonist at wild-type CB1).
`Cc1nc(=O)c2cc(CN(C)c3ccc(C(=O)N[C@@H](CCc4nn[nH]n4)C(=O)O)s3)ccc2[nH]1` has a Hill slope of 1.3 (4'-phosphopantetheinyl transferase PptT; enzyme activity, inhibitor, fluorescence polarization).
For `CCCCCn1cc(C(=O)c2ccc3ccccc3c2)c2ccccc21`, the Emax was 91.8% (CNR2 (Homo sapiens, UniProt P34972); β-arrestin recruitment, agonist, BRET; HEK-293T).
With `Cc1nc(=O)c2cc(CN(C)c3cccc(C(=O)Nc4n[nH]c5ccccc45)c3)ccc2[nH]1` the Hill slope was 1.1 (4'-phosphopantetheinyl transferase PptT; enzyme activity, inhibitor, fluorescence polarization).
Under Ki, `CCOC(=O)C1C(OC(c2ccc(Cl)cc2)c2ccc(Cl)cc2)CC2CCC1N2C` (single isomer, unassigned) is recorded as “inactive” (rat 5-HT1 receptors; binding, radioligand displacement; inactive if below 75% at 10000 nM, together with: [3H]5-HT).
For `Cc1nc(=O)c2cc(CN(C)c3cccc(C(=O)N[C@@]4(C(=O)O)CC[C@@H](C(=O)O)C4)c3)ccc2[nH]1`, the Hill slope was 1.4 (4'-phosphopantetheinyl transferase PptT; enzyme activity, inhibitor, fluorescence polarization).
For `Cc1cc(S(=O)(=O)N(C)CC(=O)Nc2ccn(C)c(=O)c2)c2[nH]ncc2c1`, “dissociation rate ratio” read 10 fold (DLD (Homo sapiens, UniProt P09622); SPR; relative to: human over M. tuberculosis Lpd).
The Hill slope of `Cc1nc(=O)c2cc(CN(C)c3cccc(C(=O)N[C@@]4(C(=O)O)CCC[C@H](C(=O)O)C4)c3)ccc2[nH]1` is reported as 0.9 (4'-phosphopantetheinyl transferase PptT; enzyme activity, inhibitor, fluorescence polarization).
`NCCc1cccc(C(F)(F)F)c1`: “STD NMR signal” 0% (Amyloid-beta precursor protein, amyloid-beta 1-40 oligomers (APP, Homo sapiens, UniProt P05067); binding, STD NMR; highest STD).
